Measured values gathered from unrelated publications.
Each line is one published result; not all experiments were run side by side. ± marks the error that the study gave. Converted amounts (≈) assume the structure as drawn.
UniProt Q9BZJ8, sequence (whole entry, looked up): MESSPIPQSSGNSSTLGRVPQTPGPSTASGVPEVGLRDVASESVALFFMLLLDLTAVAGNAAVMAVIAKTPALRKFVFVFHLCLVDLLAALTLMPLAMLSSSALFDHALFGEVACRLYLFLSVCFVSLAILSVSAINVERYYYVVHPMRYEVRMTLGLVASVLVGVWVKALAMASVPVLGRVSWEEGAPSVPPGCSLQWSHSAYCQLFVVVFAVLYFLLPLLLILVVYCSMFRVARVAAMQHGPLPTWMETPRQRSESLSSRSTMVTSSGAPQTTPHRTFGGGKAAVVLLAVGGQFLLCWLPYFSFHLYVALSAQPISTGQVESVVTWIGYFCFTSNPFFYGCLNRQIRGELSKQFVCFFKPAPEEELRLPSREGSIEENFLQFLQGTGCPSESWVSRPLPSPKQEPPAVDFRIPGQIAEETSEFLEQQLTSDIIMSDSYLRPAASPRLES
UniProt Q9NZJ5, sequence (whole entry, looked up): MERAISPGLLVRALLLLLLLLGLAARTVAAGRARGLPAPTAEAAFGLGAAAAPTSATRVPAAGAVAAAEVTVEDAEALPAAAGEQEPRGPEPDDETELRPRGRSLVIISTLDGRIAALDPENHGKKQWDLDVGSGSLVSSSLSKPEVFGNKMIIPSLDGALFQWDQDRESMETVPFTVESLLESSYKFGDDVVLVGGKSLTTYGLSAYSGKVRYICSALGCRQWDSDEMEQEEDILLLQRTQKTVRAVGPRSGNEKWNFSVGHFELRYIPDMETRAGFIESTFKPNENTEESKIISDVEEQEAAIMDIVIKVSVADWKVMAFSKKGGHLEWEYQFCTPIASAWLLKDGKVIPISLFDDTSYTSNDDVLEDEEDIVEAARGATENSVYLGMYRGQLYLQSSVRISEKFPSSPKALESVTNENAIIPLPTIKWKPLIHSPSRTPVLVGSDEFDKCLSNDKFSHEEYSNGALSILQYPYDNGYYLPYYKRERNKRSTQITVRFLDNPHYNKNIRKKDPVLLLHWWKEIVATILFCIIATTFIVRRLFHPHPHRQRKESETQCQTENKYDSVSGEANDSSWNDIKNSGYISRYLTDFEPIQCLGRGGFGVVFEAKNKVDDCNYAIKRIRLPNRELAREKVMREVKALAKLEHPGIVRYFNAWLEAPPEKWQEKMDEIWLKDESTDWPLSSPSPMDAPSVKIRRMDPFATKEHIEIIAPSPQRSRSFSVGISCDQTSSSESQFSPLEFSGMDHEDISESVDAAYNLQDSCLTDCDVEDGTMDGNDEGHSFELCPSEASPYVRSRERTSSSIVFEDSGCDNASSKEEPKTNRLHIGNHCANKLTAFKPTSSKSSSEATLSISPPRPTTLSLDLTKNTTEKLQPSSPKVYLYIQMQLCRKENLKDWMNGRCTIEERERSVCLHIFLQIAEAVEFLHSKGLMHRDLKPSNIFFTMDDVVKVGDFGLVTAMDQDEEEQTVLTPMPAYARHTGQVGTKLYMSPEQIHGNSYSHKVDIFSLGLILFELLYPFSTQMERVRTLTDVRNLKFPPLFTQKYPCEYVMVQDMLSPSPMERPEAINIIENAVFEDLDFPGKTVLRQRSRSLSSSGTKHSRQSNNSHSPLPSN
UniProt Q9C0E2, sequence (whole entry, looked up): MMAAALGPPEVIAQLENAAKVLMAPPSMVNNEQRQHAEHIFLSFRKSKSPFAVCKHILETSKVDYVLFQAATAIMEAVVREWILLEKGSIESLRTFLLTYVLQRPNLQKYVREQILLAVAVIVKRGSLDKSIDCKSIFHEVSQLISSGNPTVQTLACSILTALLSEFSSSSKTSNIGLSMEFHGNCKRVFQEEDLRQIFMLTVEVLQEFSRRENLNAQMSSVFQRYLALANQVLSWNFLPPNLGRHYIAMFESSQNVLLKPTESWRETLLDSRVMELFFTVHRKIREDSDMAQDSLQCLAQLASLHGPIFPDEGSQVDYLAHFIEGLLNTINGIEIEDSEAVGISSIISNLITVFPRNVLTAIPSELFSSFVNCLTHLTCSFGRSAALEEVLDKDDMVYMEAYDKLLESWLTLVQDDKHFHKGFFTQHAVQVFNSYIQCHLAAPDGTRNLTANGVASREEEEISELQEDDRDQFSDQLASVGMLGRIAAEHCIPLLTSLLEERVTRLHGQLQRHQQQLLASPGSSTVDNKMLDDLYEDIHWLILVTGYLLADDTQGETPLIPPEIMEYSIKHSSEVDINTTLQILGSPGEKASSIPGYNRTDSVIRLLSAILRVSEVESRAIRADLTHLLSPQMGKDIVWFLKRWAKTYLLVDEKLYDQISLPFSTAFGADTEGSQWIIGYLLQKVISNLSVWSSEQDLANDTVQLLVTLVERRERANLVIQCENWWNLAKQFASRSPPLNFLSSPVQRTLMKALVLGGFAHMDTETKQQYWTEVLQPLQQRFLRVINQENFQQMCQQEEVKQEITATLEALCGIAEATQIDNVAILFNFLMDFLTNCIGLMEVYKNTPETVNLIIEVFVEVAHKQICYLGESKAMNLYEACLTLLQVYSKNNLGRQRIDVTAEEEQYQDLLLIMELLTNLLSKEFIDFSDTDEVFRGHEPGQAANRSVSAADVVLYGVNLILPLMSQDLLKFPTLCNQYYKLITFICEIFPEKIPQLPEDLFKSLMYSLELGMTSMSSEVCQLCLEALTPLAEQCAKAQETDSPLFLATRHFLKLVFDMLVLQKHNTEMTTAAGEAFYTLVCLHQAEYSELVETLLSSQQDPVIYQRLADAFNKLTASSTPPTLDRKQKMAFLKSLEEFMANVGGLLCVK

The EC50 ratio of CCN(CC)CC#Cc1ccc2[nH]c(C)c(Cl)c(=O)c2c1 is reported as 3.1 (Plasmodium falciparum; parasite growth, SYBR Green; 72 h; reference: 3D7-E182D over 3D7).
For CC(C)[C@@H]1NC(=O)[C@@H](CCCCN)NC(=O)[C@H](CCCN)NC(=O)[C@@H](CC(=O)O)NC(=O)[C@H](C)NC(=O)[C@H](Cc2c[nH]c3ccccc23)NC(=O)[C@@H](Cc2ccccc2)NC1=O, the IC90 was > 16 µg/mL (Naegleria fowleri; trophozoites).
CC(C)(C)c1cc(C=C(C#N)C#N)cc(C(C)(C)C)c1O gave an IC50 of 1050 nM (Plasmodium falciparum; 7G8).
With COc1cc(CCC[P+](c2ccccc2)(c2ccccc2)c2ccccc2)c(OC)c2c1OCO2.[I-] the mean Log10LC50 was -4.19 log M (NCI60 panel; SRB).
CC12CC3CC(C)(C1)CC(N)(C3)C2 gave an IC50 of 1580 nM (Plasmodium falciparum; W2).
With NCCCC[C@@H]1NC(=O)[C@@H](CCCCN)NC(=O)[C@H](CO)NC(=O)[C@H](Cc2c[nH]c3ccccc23)NC(=O)[C@@H](Cc2c[nH]c3ccccc23)NC(=O)[C@H](Cc2ccccc2)NC(=O)[C@@H](CCCCN)NC1=O the IC90 was > 16 µg/mL (Naegleria fowleri; trophozoites).
With CN(C)CC[C@@H](c1ccc(Br)cc1)c1ccccn1 the IC50 was 1580 nM (Plasmodium falciparum; 7G8).
COc1cc2c(Oc3ccc4[nH]c(C)cc4c3F)ccnc2cc1OCC1(N)CC1 — result for “grade 3 Triglyceride elevation”: 0% (paediatric recurrent refractory sarcoma; 10 mg).
CC(=O)N1CCC(C(=O)N2CCN3C(=O)c4cc(-c5ccccc5)ccc4NC(=O)C3C2)CC1 (stereo not drawn): “revertants per plate” 112 (Salmonella typhimurium; TA100; 5.0 µg/plate, together with: rat liver S9).
CCc1nc2nc(C)cc(Nc3ccc(F)c(Cl)c3)n2n1 gave an EC50 of 8300 ± 820 nM (Plasmodium falciparum; parasite growth, SYBR Green; 3D7 DHODH E182D; 72 h).
For O=C(O)C[C@H](NC(=O)[C@H](CC(=O)O)NC(=O)[C@H](CC(=O)O)NC(=O)[C@H](CC(=O)O)NC(=O)[C@H](CC(=O)O)NC(=O)[C@H](CC(=O)O)NC(=O)[C@H](CC(=O)O)NC(=O)[C@H](CC(=O)O)NC(=O)[C@H](CC(=O)O)NC(=O)[C@H](CC(=O)O)NC(=O)[C@H](CC(=O)O)NC(=O)[C@H](CCCCNC(=O)c1ccc(C(=O)NCCOCCOB2BBBBBB3BBBB3B2)cc1)NC(=O)CN1CCN(CC(=O)O)CCN(CC(=O)O)CCN(CC(=O)O)CC1)C(=O)O [gallium-67 labelled], the tissue uptake was 0.51 %ID/g (gamma counting; ddY mouse, male, 6 weeks old, large intestine; intravenous, 37 kBq, 10 min).
The MBC90 of CC[C@H](C)[C@H](NC(=O)[C@H](C)NC(=O)[C@H](CCCCN)NC(=O)[C@H](CC(C)C)NC(=O)[C@H](C)NC(=O)[C@@H](NC(=O)[C@H](Cc1c[nH]cn1)NC(=O)[C@H](CC(C)C)NC(=O)[C@@H](NC(=O)[C@@H](NC(=O)[C@H](CCCCN)NC(=O)[C@H](C)NC(=O)[C@H](C)NC(=O)[C@H](CO)NC(=O)[C@H](CCCCN)NC(=O)[C@H](Cc1ccccc1)NC(=O)[C@@H](NC(=O)[C@H](CCCCN)NC(=O)[C@H](CC(C)C)NC(=O)[C@H](Cc1ccccc1)NC(=O)[C@H](CO)NC(=O)[C@H](CCCCN)NC(=O)[C@H](Cc1c[nH]c2ccccc12)NC(=O)[C@H](CCCCN)NC(C)=O)[C@@H](C)O)[C@@H](C)O)C(C)C)[C@@H](C)O)C(=O)N[C@@H](CO)C(=O)N[C@@H](CO)C(N)=O is reported as 8 µg/mL (≈ 2.73 µM) (Klebsiella pneumoniae; ATCC 700603 (ESBL)).
Under “LS mean difference vs placebo”, CS(=O)(=O)CCCn1c(Cn2c(=O)n(CC(F)(F)F)c3ccncc32)cc2cc(Cl)ccc21 is recorded as -0.11 log10 copies/mL (respiratory syncytial virus; RT-qPCR; hospitalized infants 1-24 months, nasal swab; oral, 2, 1.5 or 1 mg/kg daily, day 7, low dose by age cohort; reference: placebo).
The IC90 of NCCCC[C@H]1NC(=O)[C@H](CO)NC(=O)[C@H](Cc2ccccc2)NC(=O)[C@@H](Cc2ccccc2)NC(=O)[C@H](Cc2c[nH]c3ccccc23)NC(=O)[C@@H](CCCN)NC(=O)[C@H](CCCN)NC1=O is reported as > 16 µg/mL (Acanthamoeba castellanii; trophozoites).
CCOC(=O)N1CCC(=C2c3ccc(Cl)cc3CCc3cccnc32)CC1 gave an IC50 of 10000 nM (Plasmodium falciparum; 3D7).
For CC(=O)c1c(Cc2ccccc2Cl)c[nH]c1C, the EC50 was 151 ± 45 nM (Plasmodium falciparum; parasite growth; Dd2).
C=CCc1ccccc1OCC(O)CNC(C)C (stereo not drawn) gave an IC50 of 10000 nM (Plasmodium falciparum; Dd2).
For CC[C@H](C)[C@H](NC(=O)[C@H](Cc1ccccc1)NC(=O)[C@H](CCC(=O)O)NC(=O)[C@H](CCCNC(=N)N)NC(=O)[C@H](C)NC(=O)[C@H](C)NC(=O)[C@H](CCC(N)=O)NC(=O)[C@H](CCC(=O)O)NC(=O)[C@H](CCC(=O)O)NC(=O)[C@H](CC(C)C)NC(=O)[C@H](Cc1ccc(O)cc1)NC(=O)[C@H](CO)NC(=O)[C@H](CO)NC(=O)[C@@H](NC(=O)[C@H](CC(=O)O)NC(=O)[C@H](CO)NC(=O)[C@@H](NC(=O)[C@H](Cc1ccccc1)NC(=O)[C@@H](NC(=O)CNC(=O)[C@H](CCC(=O)O)NC(=O)[C@H](C)NC(=O)CCc1c[nH]cn1)[C@@H](C)O)[C@@H](C)O)C(C)C)C(=O)N[C@@H](C)C(=O)N[C@@H](Cc1c[nH]c2ccccc12)C(=O)N[C@@H](CC(C)C)C(=O)N[C@H](C(=O)N[C@@H](CCCNC(=N)N)C(=O)NCC(=O)N[C@@H](CCCNC(=N)N)C(=O)N[C@@H](CCCCNC(=O)COCCOCCNC(=O)COCCOCCNC(=O)CC[C@H](NC(=O)CCCCCCCCCCCCCCCCC(=O)O)C(=O)O)C(=O)NCC(=O)NCC(=O)N[C@@H](CO)C(=O)N[C@@H](CCCCNc1c(NCCCCCN(O)C(=O)CCC(=O)NCCCCCN(O)C(=O)CCC(=O)NCCCCCN(O)C(C)=O)c(=O)c1=O)C(=O)O)C(C)C [zirconium-89 labelled], the tissue uptake was 0.21 %ID/g (ex vivo gamma counting; rat, knee; subcutaneous, 3 nmol/kg, 24 h, together with: [89Zr]-labelled peptide).
For Oc1ccc2c3c1O[C@H]1[C@@H](O)CC[C@@]4(O)[C@@H](C2)N(CC2CCC2)CC[C@]314, “log2 fold change” read 0.023 (G-protein coupled receptor 61 (GPR61, Homo sapiens, UniProt Q9BZJ8); β-arrestin recruitment, TANGO luminescence, refers to: GPR61; concentration not given; reference: basal luminescence).
CCCC1O[C@@H]2C[C@H]3[C@@H]4CCC5=CC(=O)C=C[C@]5(C)[C@H]4[C@@H](O)C[C@]3(C)[C@]2(C(=O)CO)O1 (stereo partly drawn) has an IC50 of 3160 nM (Plasmodium falciparum; 3D7).
For C[C@H]1CN(c2n[nH]c3nc(N[C@H]4CC[C@H](NS(=O)(=O)CCC(F)(F)F)CC4)ncc23)CCO1, the remaining binding was 1.34 (Exportin-4 (Homo sapiens, UniProt Q9C0E2); Kinobeads competition, refers to: XPO4; 0.032 µM, unit not given; reference: vehicle).
For CC(C)[C@@H]1NC(=O)[C@@H](CCCCN)NC(=O)[C@H]([C@@H](C)O)NC(=O)[C@@H](CCCCN)NC(=O)[C@H](Cc2c[nH]c3ccccc23)NC(=O)[C@@H](C)NC(=O)[C@@H](C(C)C)NC(=O)[C@@H](C)NC(=O)[C@H](Cc2c[nH]c3ccccc23)NC(=O)[C@@H](Cc2c[nH]c3ccccc23)NC1=O, the IC50 was 15.4 µg/mL (Acanthamoeba castellanii; trophozoites).
For CC[C@H](C)[C@@H]1NC(=O)[C@@H]2CCCN2C(=O)[C@H](CC(C)C)NC(=O)[C@H](CC(C)C)NC(=O)CNC(=O)[C@@H](NC(=O)[C@@H](NC(=O)[C@H](CC(=O)O)NC(=O)CNC(=O)[C@@H](NC(=O)[C@H](C)NC(=O)CNC(=O)[C@H](CCCCN)NC(=O)[C@H](CC(C)C)NC(=O)[C@H](CC(C)C)NC(=O)[C@H](CCCCN)NC(=O)CNC(=O)[C@@H](NC(=O)[C@@H](N)CC(C)C)C(C)C)C(C)C)C(C)C)CSSC[C@@H](C(=O)O)NC1=O, “log2 fold change” read -3.47 (RNA-seq, refers to: Slc28a2; mouse, traumatic brain injury model, frontal cortex and hippocampus; dose not given; reference: TBI alone).
C[C@]12C=CC(=O)C=C1CC[C@@H]1C2=CC[C@]2(C)[C@@H](C(=O)CN3CCN(c4cc(N5CCCC5)nc(N5CCCC5)n4)CC3)CC[C@@H]12 gave an IC50 of 10000 nM (Plasmodium falciparum; Dd2).
CC(C)[C@@H]1NC(=O)[C@@H](CCCN)NC(=O)[C@H]([C@@H](C)O)NC(=O)[C@@H](CCCN)NC(=O)[C@H](Cc2ccccc2)NC(=O)[C@@H](C)NC(=O)[C@@H](C(C)C)NC(=O)[C@@H](C)NC(=O)[C@H](Cc2c[nH]c3ccccc23)NC(=O)[C@@H](Cc2c[nH]c3ccccc23)NC1=O has an IC90 of > 16 µg/mL (Naegleria fowleri; trophozoites).
COc1ccc(N2C(=O)N(c3c(C)cccc3Cl)Cc3cnc(Nc4ccc(C5CCN(C)CC5)cc4OC)nc32)nc1 gave an inhibition of 15% (Eukaryotic translation initiation factor 2-alpha kinase 3 (EIF2AK3, Homo sapiens, UniProt Q9NZJ5); kinase activity, inhibitor; 0.5 µM, kinase PERK).
The EC50 of CC(c1ccc(OC(F)(F)F)cc1)c1nn2c(-c3cccs3)nnc2s1 (stereo not drawn) is reported as 68.8 ± 24 nM (Plasmodium falciparum; parasite growth, SYBR Green; 3D7 wild type; 72 h).
The IC50 of COc1cc(Nc2ncc(F)c(Nc3ccc4c(n3)NC(=O)C(C)(C)O4)n2)cc(OC)c1OC is reported as > 10000 nM (NMDA receptor polyamine site).
The EC50 ratio of Cc1cc(=O)oc2c1ccc1oc(C(O)c3ccc(Cl)cc3)c(C)c12 (stereo not drawn) is reported as 4.2 (Plasmodium falciparum; parasite growth, SYBR Green; 72 h; reference: 3D7-E182D over 3D7).
CC(C)[C@H]1NC(=O)[C@H](Cc2ccccc2)NC(=O)CNC(=O)[C@@H](Cc2ccccc2)NC(=O)[C@H](CCC(N)=O)NC(=O)[C@@H](CCCN)NC1=O gave an IC90 of > 16 µg/mL (Acanthamoeba castellanii; trophozoites).
COCC(C)n1c(SCC(=O)Nc2cc(C(F)(F)F)ccc2Cl)nc2ccccc2c1=O (stereo not drawn) has an EC50 of > 5000 nM (Plasmodium falciparum; parasite growth).
C[C@@H](O)[C@@H]1NC(=O)[C@H](Cc2ccccc2)NC(=O)[C@@H](Cc2ccccc2)NC(=O)[C@H]([C@@H](C)O)NC(=O)[C@@H](CCCCN)NC(=O)[C@H](CC(=O)O)NC1=O gave an IC90 of > 16 µg/mL (Acanthamoeba castellanii; trophozoites).
The IC50 of Cc1ccc2c(c1)CC[C@@](CCN(C)CCCc1nc3ccccc3[nH]1)(OC(=O)C1CC1)[C@H]2C(C)C is reported as 2510 nM (Plasmodium falciparum; 7G8).
For COc1ccc(-n2ccnc2SCC(=O)Nc2cc(Cl)ccc2OC)c(OC)c1, the EC50 was 5290 ± 700 nM (Plasmodium falciparum; parasite growth, SYBR Green; 3D7 DHODH E182D; 72 h).
C[C@@H](O)[C@@H]1NC(=O)[C@@H](CCCCN)NC(=O)[C@H](CCCN)NC(=O)[C@@H](CCCN)NC(=O)[C@H](CO)NC(=O)[C@H](Cc2c[nH]c3ccccc23)NC(=O)[C@@H](Cc2c[nH]c3ccccc23)NC1=O gave an IC50 of > 16 µg/mL (Naegleria fowleri; trophozoites).
For CO[C@H]1C[C@@H]2CC[C@@H](C)[C@@](O)(O2)C(=O)C(=O)N2CCCC[C@H]2C(=O)O[C@H]([C@H](C)C[C@@H]2CC[C@@H](OC(=O)NCCOCCOCCOCCOCCOCCOCCOCCOCCC(=O)N3CCc4cc(Cn5nc(-c6ccc7oc(N)nc7c6)c6c(N)ncnc65)ccc4C3)[C@H](OC)C2)C[C@@H](O)[C@H](C)/C=C(\C)[C@@H](O)[C@@H](OC)C(=O)[C@H](C)C[C@H](C)/C=C/C=C/C=C/1C, “maculopapular rash incidence” read 0% (patients with advanced solid tumours; intravenous, 10 mg weekly, grade 3 or higher).
With C[C@@H](O)[C@@H](CO)NC(=O)[C@@H](CCCNC(=N)N)NC(=O)[C@@H]1CCCN1C(=O)[C@@H]1CSSC[C@H](NC(=O)[C@H](Cc2ccccc2)NC(=O)CN2CCN(CC(=O)O)CCN(CC(=O)O)CCN(CC(=O)O)CC2)C(=O)N[C@@H](Cc2ccc(O)cc2)C(=O)N[C@@H](Cc2ccccc2)C(=O)N[C@@H](CCC(N)=O)C(=O)N[C@@H](CC(N)=O)C(=O)N1 [gallium-68 labelled] the tissue uptake was 0.05 %ID/g (Wistar rat, healthy, Lacrimal gland; intravenous, 8 MBq, 120 min).
With CNC(=O)c1cc(Cl)cc(C)c1NC(=O)c1cc(Br)nn1-c1ncccc1Cl the larval survival was 21.6% (Spodoptera litura; Brassica oleracea field; 25 ppm, 168 h, 5% water-dispersible granule).
Cc1ccc(N2CCc3c(-c4cc5cccnc5nc4C)cc(C)nc32)c(Cl)c1 has an EC50 of 291 ± 80 nM (Plasmodium falciparum; parasite growth, SYBR Green; 3D7 wild type; 72 h).
